Assay results from different studies.
A part holds a random share of what one study measured.

Series 1
Target: RNA binding protein fox-1 homolog 2, RRM domain, GST-SBP tag (RBFOX2, Homo sapiens, UniProt O43251-10, residues 100-194)
Technique: RNA Bind-n-Seq
Form: RNA
Sample: in vitro
Tested at: 365 nM
Notes: natural RNA segment, single round, ends assumed
Relative to: no-protein control
Reading: higher = stronger binding
Measurement: RBNS enrichment (R)
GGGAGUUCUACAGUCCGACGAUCACAUGACUCCAGAAGUCUCUGACCCCAUUUGUUUUUAAUGGCAUCAGCCAAUGAGUUAUCACCCUUUUCCUCCUCUUUUCUCUUUAAUCUUCUGUUGAUUUACACCUUUGUGGAAUUCUCGGGUGCCAA: 0.654
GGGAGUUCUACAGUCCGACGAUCUUGAGAUCCUUGCUGGAUGCCGACCAGGAUUUCAUGUGAGGGCCAGGGAUGCACAGACCUGGUCAAUCUUUGGCUGAUUGAAAGAGCCUCAGUAAAGAGACAAGGAGAGAUGGAAUUCUCGGGUGCCAA: 2.5
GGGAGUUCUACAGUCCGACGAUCAUAUAUUUUCGGCAGAUUGAGCUUUAGAGAUGCAACGACUUUUCCCUCUGUGCCUGUAGGAAUGCUCAGUGGAGCUGACCGAGGAAGAAAAUAAAAGAGCCAGUCAUUGAUGGAAUUCUCGGGUGCCAA: 3.27
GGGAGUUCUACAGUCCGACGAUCCUUAAGUGUGAGACUUGGGUGGAUGGGAAAGUUAAAUAUUGGUCUCUUCAAGUUUUUUUUUUCUUUUGCUUUGUUACCACUUGUCACUGUCUCCAUGUUAAAAUGCCAAAUGGAAUUCUCGGGUGCCAA: 1.41
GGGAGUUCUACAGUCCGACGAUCCCUUGAAUAUAGUGAGUCCAGUCUCAAAAGAAAAAAAAAGGUAAGUGAGGCUGGAGAAAUGGCUUAGAGGUUAAGAGUGUGGACUGUUCUUGCGUAGUUAUGACCAUUGAUGGAAUUCUCGGGUGCCAA: 1.83
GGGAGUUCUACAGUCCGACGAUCCUGCGCCUGCUGGGGACAGUGUGGCCCUGUCCCAGUAGCUUGAUGACUCAGGGUGGACCUUGCUCCCAGGACUUGUCUCUCCCCAGGCUUUGUAGGCAAGCCUCACAAGCUGGAAUUCUCGGGUGCCAA: 5.21
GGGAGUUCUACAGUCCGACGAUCGUAGGCUGCAGUAGGUGUCCUACCUCGAGGCCCUCAGAUGGAGGUAACACAUUAGGAUUGUGGGACACAAGAUCCUCUCUGAACCUCCUGGUUAAGGAACGUUCCUGCAAUGGAAUUCUCGGGUGCCAA: 0.409
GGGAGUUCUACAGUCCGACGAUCCAUCCACAUGGUGACAGGUCUGGACCCCGAGAAGUUGAUCAGCCUGCACACAGUGGAGCUUCGGGGGAACCAGCUGGAAAGCACCCUGGGAAUCAAUCUUCCUAAGCUGAUGGAAUUCUCGGGUGCCAA: 0.533
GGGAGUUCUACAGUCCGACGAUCUAUUAAGAAGGCACUUAAUAGUACAUCAUGUAAGAUGGCAACUGUAUUAAAGAAAAAUCCGGAAAACAAAUGUUUGAUUUUUGUUUUUGUUUUUAUCUUGUCUGUAGAGGUGGAAUUCUCGGGUGCCAA: 0.992
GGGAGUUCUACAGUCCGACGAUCAUUCCACCACAAAAAGAGACCCUGAAUAAGAAGAGCAGUUUUCCUGUGCAUAUAGAGGGUGUGUCAAAGGUGAGCUUUUUGGGGACCGGGAAAAACAAAGUUGCCUGAUUUGGAAUUCUCGGGUGCCAA: 3.95
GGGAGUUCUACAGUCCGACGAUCAAAACCAAAACCAAACCAAAGUUCUUUGUUUUGCCUGGUUACGACAUUCAGUUUAUCUGUGUAAAUAUUAUGAUUUUUUUUGUUUUGUUUUCUCUUUAGAAUUUUGUUAAUGGAAUUCUCGGGUGCCAA: 1.04
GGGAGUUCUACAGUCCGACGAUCGGCACUUUAGAUAAGCCUUUUUAAAAUUCUUUCUGAUUUUAAAUAAUGCGUCAAAAAAUGUGCAGAAAAUGUAUUGCAUCCCUUGAUACUGUCUAACGAAUAGCACAUAAUGGAAUUCUCGGGUGCCAA: 1.35

Series 2
Target: Sal-like protein 4, full length isoform A (SALL4, Homo sapiens, UniProt Q9UJQ4, residues 1-1053)
Chain of UniProt Q9UJQ4 (whole entry, looked up): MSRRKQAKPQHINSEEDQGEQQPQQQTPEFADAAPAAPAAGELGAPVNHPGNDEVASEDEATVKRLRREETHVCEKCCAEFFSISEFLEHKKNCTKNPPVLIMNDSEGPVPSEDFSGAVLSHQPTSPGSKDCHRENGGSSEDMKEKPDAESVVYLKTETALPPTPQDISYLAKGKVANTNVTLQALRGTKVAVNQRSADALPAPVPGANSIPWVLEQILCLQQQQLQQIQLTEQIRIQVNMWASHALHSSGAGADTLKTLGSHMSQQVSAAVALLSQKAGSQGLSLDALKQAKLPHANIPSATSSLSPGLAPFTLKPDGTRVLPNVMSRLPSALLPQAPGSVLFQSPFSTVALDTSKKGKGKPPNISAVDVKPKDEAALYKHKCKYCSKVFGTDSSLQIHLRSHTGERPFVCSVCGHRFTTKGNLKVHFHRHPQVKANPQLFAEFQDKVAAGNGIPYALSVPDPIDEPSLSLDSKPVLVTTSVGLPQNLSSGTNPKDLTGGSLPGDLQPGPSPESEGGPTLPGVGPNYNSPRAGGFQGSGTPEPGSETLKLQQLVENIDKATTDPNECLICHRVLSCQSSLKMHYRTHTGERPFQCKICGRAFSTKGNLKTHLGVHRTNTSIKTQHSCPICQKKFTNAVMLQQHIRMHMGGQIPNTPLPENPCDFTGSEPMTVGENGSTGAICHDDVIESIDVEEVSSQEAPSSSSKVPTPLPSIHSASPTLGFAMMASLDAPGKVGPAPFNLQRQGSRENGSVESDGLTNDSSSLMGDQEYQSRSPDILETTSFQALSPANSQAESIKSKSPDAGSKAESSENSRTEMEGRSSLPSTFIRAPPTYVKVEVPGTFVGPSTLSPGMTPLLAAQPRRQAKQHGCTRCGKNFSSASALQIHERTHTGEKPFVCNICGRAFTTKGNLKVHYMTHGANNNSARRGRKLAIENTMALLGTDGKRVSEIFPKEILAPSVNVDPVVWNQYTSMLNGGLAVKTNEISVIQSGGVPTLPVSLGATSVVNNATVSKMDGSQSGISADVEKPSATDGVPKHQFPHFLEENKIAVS
Technique: universal PBM
Form: double-stranded DNA, one strand shown
Sample: in vitro
Tested at: 600 nM
Notes: 8-mer, flanks averaged, mean of replicates
Reading: higher = stronger binding
Measurement: E-score
TAAGCCGA: 0.0698
CGTTAAAA: 0.145
GGCATCCC: -0.372
GCCCCGAA: -0.272
AATGTATC: 0.245
AGTTTCAG: -0.0658
GATTAACC: -0.107
ATATCCCG: -0.0148
CGGGGTGA: -0.139
CACCGAGC: -0.196
GTTTCCCA: -0.122
AGTATTAA: 0.351
ATCAAGAA: 0.306
CCACCGTC: -0.356
ATTTCGCG: 0.105
GGAGGGAA: -0.188
CCCCAGGG: -0.405
GATCCAGA: -0.0323
TATTCCCA: 0.144
CTTGGTCA: 0.0267
GGCGAGCA: -0.295
GGACTGAC: -0.22
GCAATAAA: 0.307
ATAACCGA: 0.229
CTCGCTCA: -0.0576

Series 3
Target: Ras GTPase-activating protein-binding protein 1, full length (G3BP1, Homo sapiens, UniProt Q13283)
Chain of UniProt Q13283 (whole entry, looked up): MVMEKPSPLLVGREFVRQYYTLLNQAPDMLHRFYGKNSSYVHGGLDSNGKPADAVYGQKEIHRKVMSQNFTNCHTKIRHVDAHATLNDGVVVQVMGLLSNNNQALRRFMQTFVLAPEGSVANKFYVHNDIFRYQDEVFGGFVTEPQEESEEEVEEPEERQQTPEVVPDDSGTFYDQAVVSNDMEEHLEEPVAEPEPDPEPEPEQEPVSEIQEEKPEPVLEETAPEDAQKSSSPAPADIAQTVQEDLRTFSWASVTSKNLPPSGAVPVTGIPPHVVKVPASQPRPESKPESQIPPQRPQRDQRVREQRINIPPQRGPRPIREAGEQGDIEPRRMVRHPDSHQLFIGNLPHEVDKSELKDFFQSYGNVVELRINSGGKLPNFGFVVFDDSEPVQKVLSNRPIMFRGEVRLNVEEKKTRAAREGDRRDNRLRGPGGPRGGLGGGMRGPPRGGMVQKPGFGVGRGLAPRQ
Technique: RNA Bind-n-Seq
Form: RNA
Sample: in vitro
Tested at: 200 nM
Notes: whole 134-nt RNA, ends assumed
Added: 150 mM KCl
Relative to: input library
Reading: higher = stronger binding
Measurement: log2 enrichment
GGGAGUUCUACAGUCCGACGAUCUUGUUUAUUCUGUGUCUUUUGCCUCCUUUCCUACAGAUGUCCGGCAGGAUAAUGCUGCUGGCAGAGCUGGCUCCAGUAGCCUUACACAGGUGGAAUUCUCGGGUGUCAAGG: 0.375
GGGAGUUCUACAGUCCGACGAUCCACAGACAACACGCACCCACACAGACAAAGAGGGAAGGGGUUGGGAUGGGGACAGGGUGCACAGCAGGGCGGGGUAGGACCCCAGCCCCUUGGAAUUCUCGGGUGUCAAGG: 1.91
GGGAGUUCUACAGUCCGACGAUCCAAGUCCUGUGCUACACAUCGUAUGUACCGAAUCGGAAAGGGGAAAGGGGAAAGGAAAGUAUUAUGUUACGCCGUUCGGAUCUGCACUUCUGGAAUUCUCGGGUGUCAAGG: -0.426
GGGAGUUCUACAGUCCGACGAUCCAAGUCCUGUGCUACACAUCGUAUGUACCGAAUCGGUUUGGUUUUUUUGGUUUGGAAAGUAUUAUGUUACGCCGUUCGGAUCUGCACUUCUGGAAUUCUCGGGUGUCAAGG: -1
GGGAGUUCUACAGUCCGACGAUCUGGAGAUGACAGAAAUGACUGGUGUGUCGCUGAAACGUGGGGCACUGGUUGUCGAAGAUAAUGACAGUGGAGUCCCAGUUGAAGAGACAAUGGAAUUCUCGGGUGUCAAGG: -1.92
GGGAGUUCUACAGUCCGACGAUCGAUGAGACAGAUGCUUCAUCAGCAGUGAAAGUGAAAAGAGCAGUCCAGAAAACAUCCGAUUUAAUAGUGUUGGGUCUCCCAUGGAAAACAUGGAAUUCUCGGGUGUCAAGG: -0.369
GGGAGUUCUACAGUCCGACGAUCUAACUUUAGAUGAGGAUCUGAUGGAUAUGGCAGUGGACGUGGAUUUGGGGAUGGCUAUAAUGGGUAUGGAGGAGGACCUGGAGGUGGCAAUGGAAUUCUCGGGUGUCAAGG: 0.215
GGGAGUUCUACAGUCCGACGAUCUAGUAACAGGGGUGAAGAUGCCUUUUGUGAUCCUGAAGAUGAAUGGGAACCCGACAUUACAGAUGCACCAGUUUCUUCACUUUCUAGAAGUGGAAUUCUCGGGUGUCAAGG: -1.6
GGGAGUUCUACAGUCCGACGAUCUGUGUUGUGCUCAUUACCAGUGCAGCGACUGCCGUCCCAGGGUGACUCUGAGUUGUCCUUUAUCGUGAGCUAGCAAUGGCUAGCGAAGACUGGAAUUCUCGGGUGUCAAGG: -1.99
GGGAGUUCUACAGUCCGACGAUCCUGUGCUACACAUCGUAUGUACCGAAUCGGGCCCCCCCGGGGCCCCCCCGGGCCCCCCCGGAAAGUAUUAUGUUACGCCGUUCGGAUCUGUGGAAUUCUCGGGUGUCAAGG: -0.737
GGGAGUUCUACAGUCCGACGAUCUGUGCUACACAUCGUAUGUACCGAAUCGGGGUUUUUUUGGGGUUUUUUUGGGGUUUUUGGGGAAAGUAUUAUGUUACGCCGUUCGGAUCUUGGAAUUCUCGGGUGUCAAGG: -0.571
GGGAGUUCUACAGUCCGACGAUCUAAUUGUGAUCUACAUUUUAAAAUAUCAAGAGAUCGUCUCAGUGCUUCUUCCCUUACAAUGGAGAGUUUUGCUUUUCUUUGGGCUGGAGGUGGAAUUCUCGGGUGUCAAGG: -0.568
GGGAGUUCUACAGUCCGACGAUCUCAAGUCCUGUGCUACACAUCGUAUGUACCGAAUCGGAAAGGAAAGGGGAAAGGGAAAGUAUUAUGUUACGCCGUUCGGAUCUGCACUUCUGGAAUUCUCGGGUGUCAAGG: -0.832
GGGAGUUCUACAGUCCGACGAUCUCCUCAAGUCCUGUGCUACACAUCGUAUGUACCGAAUCGGUGGGGUGGUGGAAAGUAUUAUGUUACGCCGUUCGGAUCUGCACUUCCAGCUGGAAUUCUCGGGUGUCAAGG: -0.387

Series 4
Target: Histone acetyltransferase KAT6A, both winged helices, GST fusion (KAT6A, Homo sapiens, UniProt Q92794, residues 1-181)
Technique: protein binding microarray
Form: double-stranded DNA, one strand shown
Sample: in vitro
Tested at: not given
Notes: 8-mer, flanks averaged, mean of 2 arrays, mostly near background
Relative to: not given
Reading: higher = stronger binding
Measurement: E-score
Construct (chain): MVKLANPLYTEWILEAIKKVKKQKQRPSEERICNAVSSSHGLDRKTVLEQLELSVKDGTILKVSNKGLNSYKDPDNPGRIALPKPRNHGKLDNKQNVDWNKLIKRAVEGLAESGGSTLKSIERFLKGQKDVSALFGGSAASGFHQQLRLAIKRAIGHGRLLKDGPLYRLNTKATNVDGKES
ATTAAGCG: 0.12
CCTGGCCC: -0.169
AATTCCCC: 0.0336
CGAACTAG: -0.0671
ACTGAATG: 0.0422
AGTCCTAT: -0.117
ACGCTCCG: 0.248
AGTGCTCA: -0.225
CGTCATTC: 0.106
CGGGTTCC: 0.247
TAAGATAA: -0.111
CACGGAGC: 0.263
ACTCGTCC: -0.0262
TAGGCCTA: -0.0973
GTCCGGCA: 0.167
CCAACTGA: -0.182
AACAACTG: -0.0133
CAGTGGAA: -0.0266
GGCAGCTA: -0.0932
CGTCTCTC: 0.00162
GCTATGCC: -0.0126
TATGCGCA: 0.319
TTGAAAAA: -0.0918
ATTGTGAA: -0.0359
GAACCAGA: -0.111

Series 5
Target: PABPC1L2, full length, GST fusion (mouse, UniProt A0ABA7IW68)
Technique: RNAcompete
Form: RNA
Sample: in vitro
Tested at: 20 nM
Notes: 7-mer, probes averaged, single round
Relative to: mean of 7-mers
Reading: higher = stronger binding
Measurement: 7-mer Z-score
Residues (chain): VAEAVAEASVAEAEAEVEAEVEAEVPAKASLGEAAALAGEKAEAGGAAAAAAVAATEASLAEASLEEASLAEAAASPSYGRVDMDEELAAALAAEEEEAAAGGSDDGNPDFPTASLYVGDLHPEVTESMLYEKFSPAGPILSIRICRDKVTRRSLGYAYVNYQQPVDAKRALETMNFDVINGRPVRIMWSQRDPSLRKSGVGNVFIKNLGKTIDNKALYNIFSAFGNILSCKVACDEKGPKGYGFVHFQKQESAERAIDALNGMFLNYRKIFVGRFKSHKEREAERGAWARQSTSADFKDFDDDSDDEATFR
UACGUCA: -0.235
UCAUUGC: -0.282
GCAAACC: -0.108
CGAUCAA: -0.0174
ACUGAUA: -0.021
CGGCUGC: -0.202
GAACAGG: 0.224
AGAUGAC: -0.211
GGUCCAC: -0.208
AUCCUCU: -0.3
AUUCCAA: -0.0192
UAAGACA: 0.196
ACUGCAA: 0.111
UCGCGGC: -0.32
AGUGUUG: -0.113
GGAUCUC: -0.0718
UACUUAG: -0.264
CGGAUUC: -0.313
CCUGUUG: -0.479
CCGGGCU: -0.0373
CCAUCUA: -0.249
GGAAUGU: -0.0881
ACAACGC: -0.012

Excerpt of the above (series 5):
AUCCUCU: -0.3
UACUUAG: -0.264
ACUGCAA: 0.111
GCAAACC: -0.108
UCAUUGC: -0.282
GGAAUGU: -0.0881
UCGCGGC: -0.32
CGGAUUC: -0.313
CCUGUUG: -0.479
GGUCCAC: -0.208
CCGGGCU: -0.0373
UACGUCA: -0.235
